Results gathered from unrelated publications.
Protocols differ between the studies behind these lines. “And” joins repeats or separate records; there may be more than shown.
dcp2 with Dcp1: mRNA decapping complex subunit 2, with Dcp1 (dcp2, Schizosaccharomyces pombe, UniProt O13828)
ache: Acetylcholinesterase (ache, Electrophorus electricus, UniProt O42275)
ADORA2A: Adenosine receptor A2a (ADORA2A, Homo sapiens, UniProt P29274)

BP(=O)(OC[C@H]1O[C@@H](n2c[n+](C)c3c(O)nc(N)nc32)[C@H](O)[C@@H]1O)OP(=O)([O-])OP(=O)([O-])OP(B)(=O)OC[C@H]1O[C@@H](n2c[n+](C)c3c(O)nc(N)nc32)[C@H](O)[C@@H]1O (single isomer, unassigned)  inhibition (dcp2 with Dcp1; 200 µM, 0.5 h): 40.4%
O=[N+]([O-])c1cccc(Cn2cc(CCS(=O)(=O)F)nn2)c1  inhibition (ache; enzyme activity, inhibitor, Ellman; 20 µM): 43%
C/C(=N\OCCCN1CCCCC1)c1ccc(C(F)(F)F)cc1  inhibition (ADORA2A; antagonist, cAMP; 10 µM): 2.87%
CN(/N=C/c1ccccc1C(=O)O)c1nc(-c2ccccc2Cl)cs1  inhibition (Protein-tyrosine kinase 6 (PTK6, Homo sapiens, UniProt Q13882); enzyme activity, inhibitor; 1 µM): -5.88%
BP(=O)(OC[C@H]1O[C@@H](n2c[n+](C)c3c(O)nc(N)nc32)[C@H](O)[C@@H]1O)OP(=O)([O-])CP(=O)([O-])OP(B)(=O)OC[C@H]1O[C@@H](n2c[n+](C)c3c(O)nc(N)nc32)[C@H](O)[C@@H]1O (stereo partly drawn)  inhibition (dcp2 with Dcp1; 200 µM, 0.25 h): 29%
c1ccc(Cn2c(-c3ccc(OC[C@H](C4CCNCC4)n4c(-c5ccccc5)nc5ccccc54)cc3)nc3ccccc32)cc1  inhibition (Retinal rod rhodopsin-sensitive cGMP 3',5'-cyclic phosphodiesterase subunit delta (PDE6D, Homo sapiens, UniProt O43924); enzyme activity, inhibitor; 5 µM): 62%
Cc1cc(Nc2nc(C[C@@]3(C(=O)O)CCN(Cc4cccc(Cl)c4F)[C@H](C)C3)cc(C)c2F)[nH]n1  inhibition (ADORA2A; inhibitor; 10 µM): -8.84%
CCc1nnc(-c2c(OC)cc(-c3cnc4cc(-c5cnn(C)c5)ccn34)cc2OC)o1  inhibition (Sodium-dependent dopamine transporter (SLC6A3, Homo sapiens, UniProt Q01959); antagonist radioligand, radioligand binding; 10 µM, SafetyScreen44 dopamine transporter): 7%
O=C(CN1CN(c2ccccc2)C2(CCN(C(=O)c3cnc4[nH]ncc4c3)CC2)C1=O)NCC(F)(F)F  inhibition (Serine/threonine-protein kinase SIK1 (SIK1, Homo sapiens, UniProt P57059); inhibitor; concentration not given): < 50%
CNC(=O)c1cccc(-c2ccc3ncc(-c4cccc(C(=O)NCCN(C)C)c4)n3n2)c1  inhibition (ache; enzyme activity, inhibitor, Ellman; 5 µM): 65.3%
NCC1CCN(Cc2cccc(F)c2)CC1  inhibition (ache; enzyme activity, inhibitor, Ellman; 20 µM): 40.7%
N[C@H](C(=O)N1CCCC1)C1CCN(c2nccc3c(-c4ncc(Cl)cc4Cl)cccc23)CC1  inhibition (Protein-arginine deiminase type-2 (PADI2, Homo sapiens, UniProt Q9Y2J8); enzyme activity, inhibitor; 0.0983 µM, together with: Ca2+ 0.25 mM): 77.6%
CCCN  inhibition (ache; enzyme activity, inhibitor, Ellman; 20 µM): 38.5%
CN[C@@H]1[C@H](O)[C@H](NC)[C@H]2O[C@]3(O)[C@H](O[C@@H]2[C@H]1O)O[C@H](C)C[C@H]3NC(=O)Cc1cc(Cl)ccn1  inhibition (Adenosine receptor A3 (ADORA3, Homo sapiens, UniProt P0DMS8); ligand displacement, radioligand; 10 µM): 9%
COc1ccc(F)cc1S(=O)(=O)Nc1cnc2c(c1)C(=O)NCCO2  inhibition (calcium channel, L-type, Phenylalkylamine site; radioligand binding; 10 µM): 0%
CC(C)[C@H]1NC(=O)C[C@H]2/C=C/CCSSC[C@@H](NC1=O)C(=O)N[C@H](Cc1cccc3ccccc13)C(=O)NCC(=O)O2  inhibition (Ephrin type-B receptor 3 (EPHB3, Homo sapiens, UniProt P54753); enzyme activity, inhibitor; 10 µM): -0.9%
CC(=O)NC[C@@H]1[C@@H](O)C[C@H]2[C@H](O)C[C@@H](CO)N12  inhibition (human placental β-N-acetylglucosaminidase; 0.0856 µM, run 1, together with: p-nitrophenyl GlcNAc): 55.3%
BP(=O)(OC[C@H]1O[C@@H](n2c[n+](C)c3c(O)nc(N)nc32)[C@H](O)[C@@H]1O)OP(=O)([O-])CP(=O)(O)O (stereo partly drawn)  inhibition (dcp2 with Dcp1; 200 µM, 0.5 h): 40%
O=C(Oc1cncc(Cl)c1)c1cccc2[nH]ccc12  inhibition (Cathepsin B (CTSB, Homo sapiens, UniProt P07858); enzyme activity, inhibitor, absorbance; 10 µM): 5%
O=C(NC1CCN(c2ncnc3[nH]cnc23)CC1)c1cccc(NS(=O)(=O)c2ccc(C(F)(F)F)cc2)c1  inhibition (Replicase polyprotein 1ab, nsp14 (Human coronavirus OC43, UniProt P0C6X6); enzyme activity; 3.125 µM): 57.3%
COc1nccc(-c2ccccc2)c1B(O)O  inhibition (Beta-lactamase (ampC, Escherichia coli K-12, UniProt P00811); enzyme activity, inhibitor, CENTA hydrolysis absorbance; 10 µM): < 10%
C[C@H](NCc1ccc(-c2ccc(C(F)(F)F)cc2)cc1)C(N)=O  inhibition (Estrogen receptor (ESR1, Homo sapiens, UniProt P03372); radioligand binding, SafetyScreen panel; 1 µM, together with: 0.50 nM [3H]Estradiol): 1%
O=C(O)c1ccccc1/C=N/Nc1nc(-c2ccccc2Cl)cs1  inhibition (SRM kinase; kinase activity, inhibitor; 1 µM): 11.2% and 12.6%
CS(C)(=O)=Nc1ccc(-c2ccc(-c3nc4cc(O[C@@H]5CO[C@H]6[C@@H]5OC[C@H]6O)[nH]c4cc3F)cc2)cc1  inhibition (PAS domain-containing serine/threonine-protein kinase (PASK, Homo sapiens, UniProt Q96RG2); enzyme activity, inhibitor; 10 µM): -3%
C=CC(=O)Nc1cc(-c2nn(C3CCC(N4CCN(C(C)=O)CC4)CC3)c3ncnc(N)c23)ccc1Oc1ccccc1 (stereo not drawn)  inhibition (Serine/threonine-protein kinase Nek3 (NEK3, Homo sapiens, UniProt P51956); inhibitor, KiNativ profiling; biochemical; 2 µM): -4.3%
c1ccc(CN2CCNCC2)cc1  inhibition (ache; enzyme activity, inhibitor, Ellman; 20 µM): 36.6%
CN(C)[C@H]1C[C@@]23CC[C@@]4(O2)C(=CC[C@]2(C)[C@@H](c5ccc6ccncc6c5)CC[C@H]24)C=C3[C@@H](O)[C@@H]1O  inhibition (Mitogen-activated protein kinase kinase kinase 21 (MAP3K21, Homo sapiens, UniProt Q5TCX8); ATP probe labelling, inhibitor, KiNativ profiling; 1 µM): 14.9%

Excerpt of the above:
COc1ccc(F)cc1S(=O)(=O)Nc1cnc2c(c1)C(=O)NCCO2  inhibition (calcium channel, L-type, Phenylalkylamine site; radioligand binding; 10 µM): 0%
CC(C)[C@H]1NC(=O)C[C@H]2/C=C/CCSSC[C@@H](NC1=O)C(=O)N[C@H](Cc1cccc3ccccc13)C(=O)NCC(=O)O2  inhibition (Ephrin type-B receptor 3 (EPHB3, Homo sapiens, UniProt P54753); enzyme activity, inhibitor; 10 µM): -0.9%
